Assay results pooled from the literature.
Every numbered part comes from another study and shows a few of its results, in no order.

Series 1
Target: RING finger protein unkempt homolog, zinc fingers 1-6, GST-SBP tag (UNK, Homo sapiens, UniProt Q9C0B0, residues 30-357)
Sequence of UniProt Q9C0B0 (30-357, looked up): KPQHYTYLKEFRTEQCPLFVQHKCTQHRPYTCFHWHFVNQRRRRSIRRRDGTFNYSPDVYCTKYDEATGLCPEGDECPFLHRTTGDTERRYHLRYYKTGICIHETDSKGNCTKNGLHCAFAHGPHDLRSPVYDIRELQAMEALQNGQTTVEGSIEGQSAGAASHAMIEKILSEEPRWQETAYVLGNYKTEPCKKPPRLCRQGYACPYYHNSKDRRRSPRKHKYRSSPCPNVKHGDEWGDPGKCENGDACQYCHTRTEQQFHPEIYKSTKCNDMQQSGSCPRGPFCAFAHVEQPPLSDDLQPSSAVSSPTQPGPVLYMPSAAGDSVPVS
Technique: RNA Bind-n-Seq
Form: RNA
Sample: in vitro
Tested at: not given
Notes: RNA with constant flanks, human and mouse sites, ends assumed
Reference: input RNA pool
Reading: higher = stronger binding
Shared flanks, not repeated: GGGAGUUCUACAGUCCGACGAUC … CAACAGAGGAUUGAGCAUCA
| Sequence | bound/input enrichment |
| --- | --- |
| AUCAAAGGUGACAUCACACCUUUAAUGGCUGCUGCUAAUGGAGGACAUGUCAAAAUCGUGAAGUUGCUGCUAGCUCAUAAAGCUGAUGUCAAUGCACAGUCUUCAACAGGCAACACAGCU | 0.14 ratio |
| CACCCUACAGUGGGUGCAGGCGUGCUUCACAUCACUGAAAAUGGGCCAACUGAAGUGGACUACAGUCCUUCUGACAUGCAGGACUCCAGUUUAUCACAUAAGAUACCACCUAUGGAGGAG | 0.136 ratio |
| GGAGGGAUGUUUGGAGCUGGAAUUUACUUUGCUGAAAACUCCUCAAAAAGCAAUCAGUAUGUUUAUGGAAUUGGAGGAGGAACAGGCUGUCCCACACACAAAGACAGAUCAUGUUAUAUA | 0.495 ratio |
| ACCGCCAUCUACUGCUUCCUGCGCUGCAUGGAGCCUCACCCUGAGAUCCCCUCCACCUUCAACAGUCUCCAGAGGACUCUCAUCUACUCCAUCUCACUUGGUGGGGACACAGACACCAUA | 0.238 ratio |
| UCUAGCUUACCAGGGGACUUACACGUGACCAGUGGCCCCGAGAGCCCUUUCAACAAUAUAUUUAAUGAUGUGGACAAAUCGGAAGAUUUGCCCAGUCACCAAAAAAUAUUCGACUUAAUG | 0.174 ratio |
| GUUGCUUAUGAACGUGGCCAGUGUGACCUGGAGCUCAUCAAUGUUUGCAAUGAGAAUUCCCUCUUCAAAAGCCUUUCUCGCUACUUAGUCCGUCGAAAGGAUCCAGAAUUGUGGGGUAGU | 0.156 ratio |
| CAUAAGCAUGAUUUGGAUCUUAUAUGUAGAGCCCAUCAGGUGGUUGAAGAUGGCUAUGAGUUUUUUGCAAAGAGGCAGUUAGUCACUCUGUUUUCUGCACCCAACUACUGUGGCGAGUUU | 0.144 ratio |
| CUAAAGAUAAGCAAUUUAAAGAAAAUUUUAAAAGGAAUCUUGGAUUAUAAUCAUGAGAUUUUAGGACAGCAAAUUAAUGACUUUACCCUUCCUGAUGUGAACCUUAUUGGGGAGCAUUCU | 1.85 ratio |
| UUUUAACAAAUGUUUUCAUUUACAGGAAAUUGCAAAGAAAAUUCUCAAGUGAUAGUCUUUUUUUUUAAGUGUUUCGUAAGACAAAAAUUGAAUAAUGUUUUUUGAAGUUCUGGCAAGAUU | 0.458 ratio |
| AUUACAGCGUGGAUGAAUGCAAUUGGUCUGAUCAUCACGGCCCUCCCAGAGCCGUACUGGAUUGUGCUUCAUGACCGAAUUGUGAAUGUGAUCAGCAGUUCUAGCCUGACGUCAGAGACA | 0.186 ratio |
| UGCGUGUGAACUGAACAGACGGAGAAGAUGUGCUAGGGAGAAUCUGCCUCCACAGUCACCCAUUUCAUUGCUCGCUGCGAAAGAGACGUGAGACUGACAUAUGCCAUUAUCUCUUUUCCA | 0.127 ratio |

Series 2
Target: PABPC1L2, full length, GST fusion (mouse, UniProt A0ABA7IW68)
Technique: RNAcompete
Form: RNA
Sample: in vitro
Tested at: 20 nM
Notes: 7-mer, probes averaged, single round
Reference: mean of 7-mers
Reading: higher = stronger binding
Construct (chain): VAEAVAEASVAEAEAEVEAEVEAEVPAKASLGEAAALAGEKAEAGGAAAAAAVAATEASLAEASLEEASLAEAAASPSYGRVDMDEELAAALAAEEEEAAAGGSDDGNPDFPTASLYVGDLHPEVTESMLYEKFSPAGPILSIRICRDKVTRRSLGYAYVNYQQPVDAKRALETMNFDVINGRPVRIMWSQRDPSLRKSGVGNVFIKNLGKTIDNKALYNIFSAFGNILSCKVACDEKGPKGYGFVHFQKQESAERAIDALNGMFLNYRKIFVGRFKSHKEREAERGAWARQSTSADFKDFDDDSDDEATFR
| Sequence | 7-mer Z-score |
| --- | --- |
| GGCAAAG | 0.506 |
| CACGAAC | -0.00833 |
| AACCAAA | 1.65 |
| CGCGCUC | -0.315 |
| UUCGCGC | -0.431 |
| CUGCCGA | -0.106 |
| AUAUAUU | -0.162 |
| UGCCCCU | -0.284 |
| CAUCCAC | -0.113 |
| UGCGUAG | -0.00108 |
| UCCAAGG | -0.19 |
| CGCAGAA | 0.283 |
| CGAGAGA | 0.171 |
| AUCCCGU | -0.411 |
| UGCCGUU | -0.373 |
| GCGAACA | 0.216 |
| GUCACUA | -0.124 |
| AUUCCAU | -0.197 |
| UGACGAC | -0.00833 |
| CUCAUGC | -0.278 |
| GUAAACA | 1.35 |
| AUUAAUC | -0.17 |

Series 3
Target: Interferon regulatory factor 5, full length, phosphomimetic (IRF5, Homo sapiens, UniProt Q13568-2, residues 1-514, K96S/S451D/S453D/S456D/S462D)
Technique: protein-binding microarray
Form: double-stranded DNA, one strand shown
Sample: in vitro
Tested at: 250 nM
Notes: 60-bp whole probe
Added: salmon DNA 0.4 mg/ml
Reference: random background probes
Reading: higher = stronger binding
Shared flanks, not repeated: GCCTAGCAC … GTCTTGATTCGCTTGACGCTGCTG
| Sequence | log fluorescence [z-score] |
| --- | --- |
| TTAGAACTGCGGACTGGATTAGTGCTA | -0.615 |
| TTAGGTCTCCTATTCCTTTAGTGCTAG | -0.138 |
| GAAAATCCCACATTTGATAAAGTGCTA | 1.42 |
| TTAGGACTCGGGACTGGGTTAGTGCTA | -0.454 |
| GAGGGACTGCTTTTCCTGACGTGCTAG | -0.00709 |
| GACGGTCTCCTTCTCCTCACGTGCTAG | -0.163 |
| TTAGGTCTCGGTTTCGGTTTGTGCTAG | 8.57 |
| TTAGATATGAGTATCGATTAGTGCTAG | 6.52 |
| GCGGTTGGATCACAAGGTCAGTGCTAG | -0.458 |
| GACGATATCGGGACTGCAGACGTGCTA | 0.996 |
| GACGCTATCGACTATCGGGACGTGCTA | 4.32 |
| GACAGTTTCCTTATCCTGACGTGCTAG | 1.51 |
| TTAGGTACCGGGTATCGGTTAGTGCTA | 3.67 |
| TCACCTATCTCCTCACAGACTGTGCTA | 0.276 |
| TCATGTTTGTCACTCTCACTGTGCTAG | 0.747 |
| TCATTTTACAATTTGCTACTGTGCTAG | 0.759 |
| GACGGTCTCAGTATCGAGACGTGCTAG | 1.34 |
| TCAGGTTTCGGGTTTCGGTTAGTGCTA | 9.83 |
| TTAAATATCGGGTATCGATTAGTGCTA | 6.57 |
| TCGTTATCCTATATCTGAACGTGCTAG | 0.581 |

Series 4
Target: Fragile X messenger ribonucleoprotein 1, C-terminal low-complexity region (Fmr1, Mus musculus, UniProt P35922)
Technique: RNA Bind-n-Seq
Form: RNA
Sample: in vitro
Tested at: 200 nM
Notes: whole 134-nt RNA, ends assumed
Added: 150 mM LiCl
Reference: input library
Reading: higher = stronger binding
Each molecule: 7-deaza-guanosine replaces G
Shared flanks, not repeated: GGGAGUUCUACAGUCCGACGAUC … UGGAAUUCUCGGGUGUCAAGG
| Sequence | log2 enrichment |
| --- | --- |
| UCCUGUGCUACACAUCGUAUGUACCGAAUCGGUUUUUUGGUUUUUUGGGGUUUUUUGGGGAAAGUAUUAUGUUACGCCGUUCGGAUCUGC | -1.34 |
| UCAAGUCCUGUGCUACACAUCGUAUGUACCGAAUCGGGAGGGUUUGGGUUUGGGAAAGUAUUAUGUUACGCCGUUCGGAUCUGCACUUCC | -0.908 |
| UGGGAGGUGGAUUUUGUUUAUUUUUUUAGCUCAUUUCCAGGGGUGGGAAUUUUUUUUUAAUAUGUGUCAUGACUAAAGUUGUUUUUGAAA | 0.255 |
| UGGUAGGUGGAUUUUGUUUAUUUUUUUAGCUCAUUUCCAGGGGUGGGAAUUUUUUUUUAAUAUGUGUCAUGAAUAAAGUUGUUUUUGAAA | 0.812 |
| UUCCUCAAGUCCUGUGCUACACAUCGUAUGUACCGAAUCGGGCGGCGGCGGAAAGUAUUAUGUUACGCCGUUCGGAUCUGCACUUCCAGC | 0.801 |
| CCUGUGCUACACAUCGUAUGUACCGAAUCAAAUUUUUAAACCCCCCCAAACCCCCCCAAAAAAGUAUUAUGUUACGCCGUUCGGAUCUGC | 1.8 |
| UUUGGCAAUGAGAUCUAAACCAGACAAAGACCUCCUUAUGGAAGAAGAUGACAUGGCCUUGGCAAAUGUAGUCAUGCAGGAAGCUCAGAA | -1.54 |
| CAAGUCCUGUGCUACACAUCGUAUGUACCGAAUCGGGGCCGGGGCCGGGGCCGGGAAAGUAUUAUGUUACGCCGUUCGGAUCUGCACUUC | -0.25 |
| UCCUGUGCUACACAUCGUAUGUACCGAAUCGGGCCCCCCGGCCCCCCGGGCCCCCCGGGGAAAGUAUUAUGUUACGCCGUUCGGAUCUGC | 0.291 |
| GCCACUGUUCACCAGUCCUACCCACACCAUGCCACACAGCUCCAUGCCCACCAGCCGCAGCCGGCUACCACGCCUACUGGAAGCCAGCCG | 0.916 |
| AAGUCCUGUGCUACACAUCGUAUGUACCGAAUCGGGUGGGAAAAAGGGUUUUUGGGAAAGUAUUAUGUUACGCCGUUCGGAUCUGCACUU | -1.88 |

Some of these lines once more (series 3):
| Sequence | log fluorescence [z-score] |
| --- | --- |
| GACGCTATCGACTATCGGGACGTGCTA | 4.32 |
| GACAGTTTCCTTATCCTGACGTGCTAG | 1.51 |
| TTAGGTACCGGGTATCGGTTAGTGCTA | 3.67 |
